Measured values from different studies.
Every numbered part comes from another study and shows a few of its results, in no order. Positions count from the first letter of the parent shown.

Block 1
Target: TATA-box-binding protein 1 (TBP1, Arabidopsis thaliana, UniProt P28147, residues 1-200, full length assumed)
Technique: protein-binding microarray
Form: double-stranded DNA, one strand shown
Medium: in vitro
Tested at: not given
Setting: k-mer, scored over probes, only values ≥0.25
Reading: higher = stronger binding
Target sequence (chain): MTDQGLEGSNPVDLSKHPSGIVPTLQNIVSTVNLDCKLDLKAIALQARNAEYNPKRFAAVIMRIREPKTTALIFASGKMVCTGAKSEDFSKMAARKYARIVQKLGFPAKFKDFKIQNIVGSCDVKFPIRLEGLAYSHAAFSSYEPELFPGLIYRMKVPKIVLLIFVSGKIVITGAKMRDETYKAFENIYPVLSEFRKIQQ
For `ATATTGC`, the E-score was 0.328.
The E-score of `AAATAAC` is reported as 0.272.
`CTTAAAA` gave an E-score of 0.378.
`AAAATAT` has an E-score of 0.393.
The E-score of `TGTTAAA` is reported as 0.312.
`ACATGTA` has an E-score of 0.262.
With `AATTATG` the E-score was 0.323.
With `TAACTTA` the E-score was 0.267.
The E-score of `ATACATA` is reported as 0.362.
`AGATTAT` gave an E-score of 0.252.
With `ATGTATA` the E-score was 0.366.
With `ATATAAG` the E-score was 0.478.
With `GATATAA` the E-score was 0.43.
The E-score of `AATGTTA` is reported as 0.301.
`AAAATAA` gave an E-score of 0.367.
The E-score of `GTTTAAA` is reported as 0.396.
For `ATAAGGA`, the E-score was 0.328.
`AAGTTAA` gave an E-score of 0.264.

Block 2
Target: FOSL1, bZIP domain (human)
Technique: DHFR protein complementation
Medium: yeast
Setting: single substitutions, most at no-binding floor
Reference: wild-type JUN-FOS pair
Reading: higher = stronger binding
Parent: JUN, bZIP domain (human); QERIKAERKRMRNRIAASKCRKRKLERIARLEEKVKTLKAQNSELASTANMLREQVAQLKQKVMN; partner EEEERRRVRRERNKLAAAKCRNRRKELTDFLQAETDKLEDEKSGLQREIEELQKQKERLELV
The binding fitness of `K39Y` is reported as -1.11 natural log.
`A40C` has a binding fitness of -0.586 natural log.
`L59W` gave a binding fitness of -1.34 natural log.
For `S47M`, the binding fitness was -0.427 natural log.
`E32C` has a binding fitness of 0.108 natural log.
With `K39D` the binding fitness was -1.39 natural log.
The binding fitness of `M51C` is reported as -0.605 natural log.
For `A46D`, the binding fitness was -1.2 natural log.
With `T48I` the binding fitness was -0.414 natural log.
`N42C` gave a binding fitness of -0.191 natural log.
With `A40G` the binding fitness was -0.726 natural log.
The binding fitness of `L38G` is reported as -1.34 natural log.
For `V56A`, the binding fitness was -1.39 natural log.
`S47Q` has a binding fitness of -0.309 natural log.
The binding fitness of `V35W` is reported as -0.793 natural log.
The binding fitness of `A29E` is reported as -0.499 natural log.
`K39M` gave a binding fitness of -0.856 natural log.
For `L59G`, the binding fitness was -1.33 natural log.
For `V56R`, the binding fitness was -1.41 natural log.
For `K39W`, the binding fitness was -1.25 natural log.
`K39E` gave a binding fitness of -0.764 natural log.
With `A57P` the binding fitness was -1.41 natural log.
The binding fitness of `E33H` is reported as -0.61 natural log.
`A29H` gave a binding fitness of -0.413 natural log.
With `L45D` the binding fitness was -1.43 natural log.

Block 3
Target: CCNE1, cyclin fold, Cln2 fusion (human)
Technique: yeast growth competition, sequencing
Medium: yeast
Setting: weak parent motif
Reference: not given
Reading: higher = stronger binding
Parent: DOT1L docking peptide (human); SEAKRRIVFTITT
Under “normalised enrichment score”, `R6A` is recorded as 0.277.
Under “normalised enrichment score”, `T10A` is recorded as 0.373.
For `V8A`, “normalised enrichment score” read 0.172.
`E2A` — result for “normalised enrichment score”: 0.727.
For `S1A`, “normalised enrichment score” read 0.541.
`R5A` — result for “normalised enrichment score”: -0.0333.

Block 4
Target: Prothrombin, mature alpha-thrombin (F2, Homo sapiens, UniProt P00734)
Technique: aptamer microarray, sandwich
Form: DNA with 2'F-ANA
Medium: in vitro
Tested at: 200 nM
Setting: whole 15-mer aptamer, many near background
Added: Cy3 exosite-II aptamer, 400 nM
Reading: higher = stronger binding
Oligonucleotide: GGTTGGTGTGGTTGG
`2'F-ANA at 1 3 6 7 9 11 12 14` — result for “mean fluorescence intensity”: 110 a.u.
`2'F-ANA at 1 2 6 7 8 11 12 13 14`: “mean fluorescence intensity” 77 a.u.
`2'F-ANA at 2 3 4 5 7 9 11 13 14`: “mean fluorescence intensity” 47.6 a.u.
For `2'F-ANA at 1 3 4 7 8 9 10 11 12 14`, “mean fluorescence intensity” read 77.8 a.u.
`2'F-ANA at 1 2 3 6 7 9 10 14`: “mean fluorescence intensity” 52.9 a.u.
For `2'F-ANA at 1 2 3 4 5 6 7 9 10`, “mean fluorescence intensity” read 47.1 a.u.
`2'F-ANA at 4 5 7 10 11 12 13 15`: “mean fluorescence intensity” 48.7 a.u.
`2'F-ANA at 4 6 7`: “mean fluorescence intensity” 399 a.u.
Under “mean fluorescence intensity”, `2'F-ANA at 1 5 7 8 9 10 11 13 14 15` is recorded as 64.1 a.u.
`2'F-ANA at 1 2 3 8 9 10 11 12 13`: “mean fluorescence intensity” 106 a.u.
`2'F-ANA at 2 4 9 11 15` — result for “mean fluorescence intensity”: 245 a.u.
Under “mean fluorescence intensity”, `2'F-ANA at 1 3 4 5 7 9 10 11 12 15` is recorded as 59.1 a.u.
For `2'F-ANA at 1 5 6 7 8 9 10 11 13 15`, “mean fluorescence intensity” read 56.1 a.u.
For `2'F-ANA at 3 6 11 12 13 15`, “mean fluorescence intensity” read 850 a.u.
`2'F-ANA at 2 3 5 7 8 9 11 12` — result for “mean fluorescence intensity”: 199 a.u.
`2'F-ANA at 1 2 4 6 7 9 11 12 13` — result for “mean fluorescence intensity”: 144 a.u.
`2'F-ANA at 1 4 5 7 11 12 13` — result for “mean fluorescence intensity”: 69.2 a.u.
`2'F-ANA at 1 9 10 11 12 14` — result for “mean fluorescence intensity”: 47.3 a.u.
`2'F-ANA at 1 2 3 6 8 9 11 13 15`: “mean fluorescence intensity” 152 a.u.
For `2'F-ANA at 2 4 5 8 9 11 12 13 15`, “mean fluorescence intensity” read 80.2 a.u.
Under “mean fluorescence intensity”, `2'F-ANA at 1 4 7 9 12` is recorded as 370 a.u.
Under “mean fluorescence intensity”, `2'F-ANA at 2 4 5 6 8 9 13` is recorded as 71.7 a.u.
For `2'F-ANA at 1 4 5 6 10 13`, “mean fluorescence intensity” read 44.1 a.u.
For `2'F-ANA at 1 2 4 6 8 12 15`, “mean fluorescence intensity” read 312 a.u.
For `2'F-ANA at 1 2 6 7 8 10 15`, “mean fluorescence intensity” read 55.7 a.u.

Block 5
Target: POU domain, class 5, transcription factor 1, POU domain (Pou5f1, Mus musculus, UniProt P20263, residues 131-289)
Chain of UniProt P20263 (131-289, looked up): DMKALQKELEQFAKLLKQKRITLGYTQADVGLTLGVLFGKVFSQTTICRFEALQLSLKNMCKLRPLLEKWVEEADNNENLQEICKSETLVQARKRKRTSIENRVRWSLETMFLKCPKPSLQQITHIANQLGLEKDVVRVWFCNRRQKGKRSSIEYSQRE
Technique: Spec-seq
Form: double-stranded DNA, one strand shown
Medium: in vitro
Tested at: not given
Setting: whole probe, mean of replicates
Reference: not given
Reading: lower = stronger binding
All sequences stand within: GAGTCGTCTCGTCAGCAC … CCGTAGAGCACTCAGGTC
`ATGCGCCT` — result for “relative binding energy”: 0.429 ln ratio.
`GGAATAAT` — result for “relative binding energy”: -1.14 ln ratio.
Under “relative binding energy”, `ATTAATAT` is recorded as -0.707 ln ratio.
Under “relative binding energy”, `ATGCATGA` is recorded as -0.533 ln ratio.
`GAGGTAAT`: “relative binding energy” 0.602 ln ratio.
Under “relative binding energy”, `ATGCCACT` is recorded as 0.671 ln ratio.
For `ATTTGCAT`, “relative binding energy” read -3.13 ln ratio.
For `ATTGTAAT`, “relative binding energy” read -0.225 ln ratio.
`ATCGTAAT`: “relative binding energy” 0.464 ln ratio.
`AGGCTAAT`: “relative binding energy” 0.62 ln ratio.
For `ATGCCACC`, “relative binding energy” read 0.702 ln ratio.
Under “relative binding energy”, `GTGATAAT` is recorded as 0.318 ln ratio.
Under “relative binding energy”, `TCGATAAT` is recorded as 0.673 ln ratio.
`ATGCACTA`: “relative binding energy” 0.0463 ln ratio.

Block 6
Target: CEP164, C-terminal peptide (human)
Technique: DHFR complementation, deep sequencing
Medium: yeast
Setting: single substitutions, model-inferred values
Reference: wild type
Reading: higher = weaker binding
Parent: PDZK1, PDZ domain 2 (human); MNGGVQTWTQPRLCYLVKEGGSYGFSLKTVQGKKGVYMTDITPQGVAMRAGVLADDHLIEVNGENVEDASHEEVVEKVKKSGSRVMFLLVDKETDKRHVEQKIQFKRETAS; partner HNRVKVYRF
Under “binding free energy change”, `K92Q` is recorded as 0.172 kcal/mol.
`V36K`: “binding free energy change” 1.32 kcal/mol.
For `G32L`, “binding free energy change” read 1.06 kcal/mol.
`M38S`: “binding free energy change” 1.5 kcal/mol.
`W8G`: “binding free energy change” -0.113 kcal/mol.
`M38W`: “binding free energy change” 1.18 kcal/mol.
For `N62F`, “binding free energy change” read 0.129 kcal/mol.
`H57G`: “binding free energy change” 0.317 kcal/mol.
For `N2G`, “binding free energy change” read -0.195 kcal/mol.
For `A54Y`, “binding free energy change” read 0.439 kcal/mol.
`I41Q` — result for “binding free energy change”: 1.06 kcal/mol.
For `K28N`, “binding free energy change” read 0.889 kcal/mol.
For `K34N`, “binding free energy change” read 0.314 kcal/mol.
For `N62D`, “binding free energy change” read 0.726 kcal/mol.
Under “binding free energy change”, `D95H` is recorded as -0.211 kcal/mol.
`K33I` — result for “binding free energy change”: -0.17 kcal/mol.
For `L13H`, “binding free energy change” read -0.0248 kcal/mol.
Under “binding free energy change”, `D55E` is recorded as 0.0272 kcal/mol.
For `A50L`, “binding free energy change” read 0.711 kcal/mol.

Block 7
Target: ABI1, truncated, D143A, DHFR fusion (Arabidopsis thaliana)
Technique: DHFR PCA, deep sequencing
Medium: yeast
Setting: methotrexate growth selection, single substitutions
Added: (+)-ABA 0.11 µM
Reference: wild-type fitted maximum
Reading: higher = stronger binding
Parent: PYL1, truncated, DHFR fusion (Arabidopsis thaliana); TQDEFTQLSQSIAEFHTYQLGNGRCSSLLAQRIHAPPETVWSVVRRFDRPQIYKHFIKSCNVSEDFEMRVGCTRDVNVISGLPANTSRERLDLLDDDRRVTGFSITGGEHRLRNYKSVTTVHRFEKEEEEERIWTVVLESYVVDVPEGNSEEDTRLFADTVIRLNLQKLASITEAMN
For `L20C`, “relative binding score” read 43.3%.
Under “relative binding score”, `R111C` is recorded as 13%.
For `P83I`, “relative binding score” read 2.04%.
For `N114I`, “relative binding score” read 1.5%.
`R113D`: “relative binding score” 1.57%.
For `E64T`, “relative binding score” read 27.1%.
For `C72D`, “relative binding score” read 25.5%.
Under “relative binding score”, `Y53D` is recorded as -0.45%.
`V161R` — result for “relative binding score”: 1.76%.
`K54W`: “relative binding score” -4.18%.
For `N77Y`, “relative binding score” read 43.7%.
For `N77C`, “relative binding score” read 55.3%.
For `I57T`, “relative binding score” read -12.7%.
Under “relative binding score”, `V100P` is recorded as -0.241%.
Under “relative binding score”, `Q2L` is recorded as 67.3%.
`E174S` — result for “relative binding score”: 3.26%.
Under “relative binding score”, `M176S` is recorded as 10.3%.

Single results of other studies
The fold induction of `PhoQ, residues 284 288 289 292 302 303 NLALSC` is reported as 4.64 (PhoP, residues 12 14 15 18 19 TPWLV (Escherichia coli, UniProt P23836); Sort-seq, measured: YFP reporter; E. coli; PhoQ-PhoP variant library, added: 10 µM Mg2+; reference: high Mg2+ state, higher = stronger signaling).
